{"data": "Earlier results, collected from citations in different studies", "note": "Lines come from different studies, so protocols differ."}
{"Structure (SMILES)": "Cc1nnc2n1-c1ccc(Cl)cc1C(c1ccccc1)=NC2", "test system": "human, plasma", "setting": "highest proposed clinical dose", "quantity": "Cmax", "result": "333 nM"}
{"Structure (SMILES)": "CN[C@H]1C(=O)N[C@@H]2Cc3ccc(cc3)Oc3cc4cc(c3O[C@@H]3O[C@H](C(=O)O)[C@@H](O)[C@H](O)[C@H]3NC(=O)CCCCCCCCC(C)C)Oc3ccc(cc3Cl)[C@@H](O)[C@@H]3NC(=O)[C@H](NC(=O)[C@@H]4NC(=O)[C@@H](NC2=O)c2cc(cc(O)c2Cl)Oc2cc1ccc2O)c1ccc(O)c(c1)-c1c(O[C@H]2O[C@H](CO)[C@@H](O)[C@H](O)[C@@H]2O)cc(O)cc1[C@@H](C(=O)NCCCN(C)C)NC3=O", "test system": "healthy humans", "setting": "1000 mg single dose, mean", "quantity": "Cmax", "result": "287 µg/mL"}
{"Structure (SMILES)": "CCC(CC)O[C@@H]1C=C(C(=O)O)C[C@H](N)[C@H]1NC(C)=O", "test system": "human adult, plasma", "setting": "75 mg twice daily, 5 days, steady state", "quantity": "Cmax", "result": "1300 nM"}
{"Structure (SMILES)": "CC(NCCc1ccc(O)cc1)C(O)c1ccc(O)cc1 (centres unmarked)", "test system": "human, plasma", "setting": "concentration not given, median of reported values", "quantity": "Cmax", "result": "40 nM"}
{"Structure (SMILES)": "N#Cc1ccc(N2N=C3c4ccc(C(=O)N5CCC(O)CC5)nc4CC[C@@H]3[C@@H]2C2CCCC2)cc1Cl", "test system": "human, plasma", "setting": "0.5 mg, steady state", "quantity": "Cmax", "result": "60 to 80 nM"}
{"Structure (SMILES)": "Cc1ncc2n1-c1ccc(Cl)cc1C(c1ccccc1F)=NC2", "test system": "human", "setting": "oral, 2.5 mg, single agent, geometric mean", "quantity": "Cmax", "result": "26.2 nM"}
{"Structure (SMILES)": "Cc1cccc([C@H](C)c2cnc[nH]2)c1C", "test system": "human", "setting": "concentration not given", "quantity": "Cmax", "result": "4.7 nM"}
{"Structure (SMILES)": "CC1(C)CCC(CN2CCN(c3ccc(C(=O)NS(=O)(=O)c4ccc(NCC5CCOCC5)c([N+](=O)[O-])c4)c(Oc4cnc5[nH]ccc5c4)c3)CC2)=C(c2ccc(Cl)cc2)C1", "test system": "human, non-Hodgkin's lymphoma patients", "setting": "50 mg single dose, together with: ketoconazole 400 mg once daily", "how to read": "reference: without ketoconazole", "quantity": "Cmax increase", "result": "2.3 fold"}
{"Structure (SMILES)": "c1cc2c(cc1[C@H]1OC[C@H]3[C@@H]1CO[C@@H]3c1ccc3c(c1)OCO3)OCO2", "test system": "human, plasma", "setting": "50 mg/day sesamin supplement, equal sesamin content", "quantity": "Cmax", "result": "54 nM"}
{"Structure (SMILES)": "COc1cc2c(c(OC)c1OC)-c1ccc(OC)c(=O)cc1[C@@H](NC(C)=O)CC2", "test system": "human, plasma", "setting": "concentration not given, total concentration", "quantity": "Cmax", "result": "17 nM"}
{"Structure (SMILES)": "C[C@H]1C[C@@H]2[C@H]([C@@H](O)C[C@@]3(C)[C@H]2CC[C@]3(O)C(=O)CO)[C@@]2(C)C=CC(=O)C=C12", "test system": "human, plasma", "setting": "concentration not given, median of reported values", "quantity": "Cmax", "result": "310 nM"}
{"note": "For quick reference, copied from above:"}
{"Structure (SMILES)": "C[C@H]1C[C@@H]2[C@H]([C@@H](O)C[C@@]3(C)[C@H]2CC[C@]3(O)C(=O)CO)[C@@]2(C)C=CC(=O)C=C12", "test system": "human, plasma", "setting": "concentration not given, median of reported values", "quantity": "Cmax", "result": "310 nM"}
